Measured values collected from several papers.
Protocols differ between the studies behind these lines. ± marks the error that the study gave. Values after ≈ are worked out from the molar mass of the structure shown.

`Cc1nc2n(n1)CC(=O)N[C@@H](C(C)C)CN(C(=O)CCc1cccnc1)CC(=O)N[C@@H](CC(C)C)c1nc(cs1)C(=O)N[C@H]2Cc1ccccc1` gave a remaining activity of 99% (Lassa mammarenavirus; viral replication; Huh-7; 10 µM, 72 h).
With `c1ccc(C(c2ccccc2)N2CCN(CCCC3(c4ccccc4)OCCO3)CC2)cc1` the EC50 was 10 µM (SARS-CoV-2; viral replication, high-content imaging screen; cell-based).
`CN1CCN(C(c2ccccc2)c2ccccc2)CC1` gave an IC50 of 5 ± 1.4 µM (Ebola virus Zaire; HIV/EBOV pseudovirion entry; A549; 48 h).
Under antiviral activity, `CNc1nc(N)ncc1-c1cn([C@@H]2O[C@H](CO[P@@](=O)(N[C@@H](C)C(=O)OC(C)C)Oc3ccccc3)[C@@H](O)[C@@]2(C)F)cn1` is recorded as “inactive” (MERS coronavirus; concentration not given).
`COC(=O)C(N)Cc1ccc(OP2(=O)COC(Cn3ccc(N)nc3=O)CO2)cc1` (stereo not drawn) gave an IC50 of 25 µM (vaccinia virus; viral replication).
`CC(C)(C)c1ccc(C(=O)Nc2ccc(N3CCCN(C(=O)c4cnccn4)CC3)nc2)cc1` gave an IC90 of > 64 µM (Mycobacterium tuberculosis; bacterial growth; H37Ra-lux; 168 h).
With `CNC(=O)[C@@H](NC(=O)[C@H](CC(C)C)[C@H](O)C(=O)NO)C(C)(C)C` the viability difference was -19.2% (Daboia russelii; C2C12; 100 µM, together with: Daboia russelii venom TN; relative to: venom alone).
With `CN1CCN2CCN(c3nc(N)nc4[nH]cnc34)CC2C1` (stereo not drawn) the remaining activity was 54% (Lassa mammarenavirus; viral replication; Huh-7; 10 µM, 72 h).
For `COc1cc2c(cc1OC)C(c1cccc(Cl)c1)=NN=C(C)C2`, the EC50 was > 100 µM (SARS-CoV-2; viral replication, GFP plate reader screen; cell-based).
The inhibition of `Nc1ncnc2c([C@@H]3N[C@H](CO)[C@@H](O)[C@H]3O)c[nH]c12` is reported as 0% (Lassa mammarenavirus; viral replication; HeLa, Josiah; 0.8 µM).
With `Clc1ccc(C(c2ccccc2)N2CCN(C/C=C/c3ccccc3)CC2)cc1` (stereo not drawn) the EC50 was > 100 µM (SARS-CoV-2; viral replication, GFP plate reader screen; cell-based).
For `O=C(CCC1CCCCC1)Nc1ncc(Cc2ccccc2)s1`, the MIC was 1.3 to 2.5 µM (≈ 0.427 to 0.821 µg/mL) (Histoplasma capsulatum; microbial growth).
`Nc1ncnc2c1ncn2[C@@H]1O[C@@H]2COP(=O)(O)O[C@H]3[C@@H](O)[C@H](n4cnc5c(=O)[nH]cnc54)O[C@@H]3COP(=O)(O)O[C@H]2[C@H]1O` has a fold enrichment of 4.14 (Chikungunya virus; upregulated Reactome pathway, RNA sequencing, measured: DNA strand elongation (R-HSA-69190); HFF-1; relative to: CHIKV-infected untreated).
With `O=C(/C=C/c1ccc(O)c(O)c1/C=C/c1ccc(O)c(O)c1)O[C@H](Cc1ccc(O)c(O)c1)C(=O)O` the inhibition was 0% (Severe acute respiratory syndrome coronavirus 2; cytopathic effect; Vero C1008; 3.125 µM).
With `O=C1NCCCOc2cccc(c2)C2c3ccc(cc3CCN2C(=O)c2ccccn2)Oc2ccc(O)c1c2` (stereo not drawn) the remaining activity was 62% (Lassa mammarenavirus; viral replication; Huh-7; 10 µM, 72 h).
The maximum response of `COc1cc2c(cc1OCC1CC1)NC(=O)C21CCN(c2cc(NC3CC3)ncn2)CC1` is reported as 57.5% (SARS-CoV-2; cytopathic effect; USA_WA1/2020; retest, 8-point, duplicates).
`CC(Cn1cncn1)NCc1cc(-c2ccccc2Cl)on1` (stereo not drawn) has a remaining activity of 36% (Lassa mammarenavirus; viral replication; Huh-7; 10 µM, 72 h).
The EC50 of `CCN(CC)CCCNc1cc(OC)cc2cccnc12` is reported as > 100 µM (SARS-CoV-2; viral replication, high-content imaging screen; BetaCov/Belgium/GHB-03021/2020; cell-based).
`CCCCCCCCCCCCN(C)C(=O)CP(=O)(O)O` gave an MIC90 of 0.049 µg/mL (≈ 0.152 µM) (Bacillus anthracis; Ames/FL).
`CC(C)=CCc1c(O)ccc(C(=O)/C=C/c2ccc(O)cc2)c1O` gave an inhibition of 0% (SARS-CoV-2; cytopathic effect; Vero E6; 3.125 µM, first run).
For `O=C(Nc1ccc(N2CCN(C(=O)c3cnccn3)CC2)nc1)c1ccc(Cl)cc1Cl`, the IC90 was > 64 µM (Mycobacterium tuberculosis; bacterial growth; H37Ra-lux; 168 h).
The maximum response of `CCn1c2ccccc2c2cc(CN3CCN(Cc4cccc(Cl)c4)CC3)ccc21` is reported as 97% (SARS-CoV-2; cytopathic effect; USA_WA1/2020; round 2, 5-point).
`CN1CCN(C(=O)c2cc3cc(Cl)ccc3[nH]2)CC1` has an IC50 of 16.6 ± 3.9 µM (Ebola virus Zaire; HIV/EBOV pseudovirion entry; A549; 48 h).
`CCN(CC)CCNC(=O)c1ccc(-c2nc(CN3CCc4ccccc43)c(C)o2)cc1` has an AC50 of 12.6 µM (SARS-CoV-2; cytopathic effect, cell-based CPE; USA_WA1/2020; round 2, 5-point dilution).
With `COc1ccc(C[C@@H]2c3cc(Oc4cc(C[C@@H]5c6cc(O)c(OC)cc6CCN5C)ccc4O)c(OC)cc3CCN2C)cc1` the inhibition was 0% (Severe acute respiratory syndrome coronavirus 2; cytopathic effect, inhibitor; Vero C1008; 6.25 µM).
The MIC50 of `Cn1c(=O)ccc2ccc(F)c(CCNC[C@H]3CN(c4cnc5c(n4)NC(=O)CO5)C(=O)O3)c21` is reported as < 0.015 µg/mL (Francisella tularensis; microbial growth).
`O=C(Nc1ccc(N2CCCN(C(=O)c3cnccn3)CC2)nc1)c1ccc(Cl)cc1` gave an IC90 of > 64 µM (Mycobacterium tuberculosis; bacterial growth; H37Ra-lux; 168 h).
For `O=C(NCCN1CCCCC1)c1ccc(-c2ccc(N3CCSCC3)nc2)cc1`, the efficacy was 81.1% (SARS-CoV-2; cytopathic effect; USA_WA1/2020; retest, 8-point, duplicates).
With `CCc1c(C(=O)C(N)=O)c2c(OCC(=O)O)cccc2n1Cc1ccccc1` the viability difference was -61.9% (Daboia russelii; C2C12; 100 µM, together with: Daboia russelii venom MP; relative to: venom alone).
`Cc1c(NCc2ccccn2)cccc1C(=O)N1Cc2ccccc2C1` has a remaining activity of 39% (Lassa mammarenavirus; viral replication; Huh-7; 10 µM, 72 h).
With `COc1ccc(-c2nc(CN3CCC(C(=O)NCCCN4CCN(c5ccccc5F)CC4)CC3)c(C)o2)cc1OC` the efficacy was 79.4% (SARS-CoV-2; cytopathic effect, cell-based CPE; USA_WA1/2020; round 2, 5-point dilution).
`CCSc1ncc(CN2CCN(c3nc(C)ncc3C)CC2)cn1` has a remaining activity of 60% (Lassa mammarenavirus; viral replication; Huh-7; 10 µM, 72 h).
`Cc1c(-c2ccc(O)cc2)n(Cc2ccc(OCCN3CCCCC3)cc2)c2ccc(O)cc12` has an EC50 of > 6.31 µM (SARS-CoV-2; viral replication, high-content imaging screen; cell-based).
`O=C(Nc1cccc(Cl)c1)C1CCCN(Cc2cccc(-c3ccc(F)cc3F)c2)C1` (stereo not drawn) has an AC50 of 12.6 µM (SARS-CoV-2; cytopathic effect, cell-based CPE; USA_WA1/2020; round 1, 5-point dilution).
The EC50 of `c1ccc2c(c1)Sc1ccccc1N2CC1CN2CCC1CC2` (stereo not drawn) is reported as 7.76 µM (SARS-CoV-2; viral replication, GFP plate reader screen; cell-based).
The inhibition of `COc1ccc(NC(=O)NCC2CCOC3(CCN(C(=O)C4(c5ccccc5)CCCC4)CC3)C2)cc1` (stereo not drawn) is reported as 80% (Venezuelan equine encephalitis virus; viral replication; 40 µM).
`O=C1NCCCOc2cccc(c2)C2c3ccc(cc3CCN2C(=O)c2ccc(C(=O)N3CCOCC3)cc2)Oc2ccc(O)c1c2` (stereo not drawn) has an Emax of 73.2% (Lassa mammarenavirus; viral replication; Huh-7; concentration not given).
`[O-][N+]1=C(c2ccc(Cl)cc2)C2=NCCN2c2ccccc21` has an MIC50 of 0.5 µg/mL (≈ 1.68 µM) (Clostridium perfringens; microbial growth).
For `O=c1ccn([C@@H]2O[C@](F)(CO)[C@@H](O)[C@H]2O)c(=O)[nH]1`, “concentration abolishing replication” read 7.8 µM (Lassa virus; ZsGreen reporter).
With `Cc1nc2n(n1)CC(=O)N[C@@H](C(C)C)CN(Cc1ccccc1)CC(=O)N[C@@H](CC(C)C)c1nc(cs1)C(=O)N[C@H]2Cc1ccccc1` the remaining activity was 78% (Lassa mammarenavirus; viral replication; Huh-7; 10 µM, 72 h).
For `COc1cccc(CNC(=O)C2CCN(Cc3cc4ccccc4n3Cc3ccccc3)CC2)c1OC`, the maximum response was 41.8% (SARS-CoV-2; cytopathic effect; USA_WA1/2020; round 2, 5-point).
For `CN(CC1CCOC2(CCN(C(=O)C3(c4ccccc4)CCCC3)CC2)C1)S(=O)(=O)CCCCl` (stereo not drawn), the EC50 was 10 µM (Venezuelan equine encephalitis virus; viral replication).
The maximum response of `CN(C)c1cccc(C(=O)NCC2CCN(c3cc(-c4ccc(Cl)cc4)n[nH]3)CC2)c1` is reported as 35.9% (SARS-CoV-2; cytopathic effect; USA_WA1/2020; retest, 8-point, duplicates).
`O=C(CCC1CCCCC1)Nc1nc(-c2ccccc2)cs1` gave an MIC of > 20 µM (Histoplasma capsulatum; microbial growth).
For `C#C[C@]1(OC(C)=O)CC[C@H]2[C@@H]3CCC4=CC(=NO)CC[C@@H]4[C@H]3CC[C@@]21CC` (mixture of isomers), the EC50 was > 100 µM (SARS-CoV-2; viral replication, GFP plate reader screen; cell-based).
With `Cc1cccc(CN2CCN(C(c3ccccc3)c3ccc(Cl)cc3)CC2)c1` (stereo not drawn) the IC50 was 10.2 ± 3.7 µM (Marburg virus; HIV/MARV pseudovirion entry; A549; 48 h).
The EC50 of `CC(C)(C)c1ccc(C(O)CCCN2CCC(C(O)(c3ccccc3)c3ccccc3)CC2)cc1` (stereo not drawn) is reported as > 100 µM (SARS-CoV-2; viral replication, GFP plate reader screen; cell-based).
`buprenorphine` has a maximal inhibition of 79% (Ebola virus; virus-like particle entry; HeLa; concentration not given).

For quick reference, copied from above:
With `O=C1NCCCOc2cccc(c2)C2c3ccc(cc3CCN2C(=O)c2ccccn2)Oc2ccc(O)c1c2` (stereo not drawn) the remaining activity was 62% (Lassa mammarenavirus; viral replication; Huh-7; 10 µM, 72 h).
The maximum response of `COc1cc2c(cc1OCC1CC1)NC(=O)C21CCN(c2cc(NC3CC3)ncn2)CC1` is reported as 57.5% (SARS-CoV-2; cytopathic effect; USA_WA1/2020; retest, 8-point, duplicates).
For `O=C(Nc1ccc(N2CCN(C(=O)c3cnccn3)CC2)nc1)c1ccc(Cl)cc1Cl`, the IC90 was > 64 µM (Mycobacterium tuberculosis; bacterial growth; H37Ra-lux; 168 h).
`CN1CCN(C(=O)c2cc3cc(Cl)ccc3[nH]2)CC1` has an IC50 of 16.6 ± 3.9 µM (Ebola virus Zaire; HIV/EBOV pseudovirion entry; A549; 48 h).
For `O=c1ccn([C@@H]2O[C@](F)(CO)[C@@H](O)[C@H]2O)c(=O)[nH]1`, “concentration abolishing replication” read 7.8 µM (Lassa virus; ZsGreen reporter).
